Published values collected from several papers.
Lines come from different studies, so protocols differ. Several values in a cell are separate wells, animals, samples, runs or records.
Cell line: MRC5
Read-out: cell growth or viability

`O=C1c2ccc(O)cc2OC1(O)Cc1ccc(O)c(O)c1` (stereo not drawn) has an IC50 of > 400 µM (MTT; 72 h).
`Cc1cc(C)c([N+]#[C][Pd-]([Cl])([Cl])=[C](Nc2cccc(CN[C](Nc3c(C(C)C)cccc3C(C)C)=[Au][Cl])c2)Nc2c(C)cc(C)cc2C)c(C)c1` has an IC50 of > 100 µM.
`COc1ccc(/N=N/C(=S)N2CCOCC2)cc1` has an IC50 of > 50 µM (resazurin; 48 h).
`C[C@]12CC/C(=N\OCCN3CCOCC3)C=C1CCC1C2CC[C@]2(C)/C(=C/c3ccccn3)CCC12` (stereo partly drawn) gave an IC50 of > 100 µM (MTT; 72 h).
The IC50 of `COc1ccc(/N=N/C(=S)N2CCN(C)CC2)cc1` is reported as > 50 µM (resazurin; 48 h).
For `F[P-](F)(F)(F)(F)F.O=C(CCC(=O)c1ccccc1)NCCN(CC(=O)Nc1ccc(C#CCN(Cc2ccccn2)Cc2ccccn2)cc1)C(=O)CCc1cn(C[c-]2cccc2)nn1.[C-]#[O+].[C-]#[O+].[C-]#[O+].[Fe+2].[Re+].c1cc[cH-]c1`, the IC50 was 22.8 µM (resazurin; 48 h).
With `O=C(c1ccccc1O)c1[nH]ccc1-n1cccc1C(=O)c1ccccc1O` the IC50 was 15 µg/mL (resazurin; 24 h).
With `CCCCCCCCCCCCCCCCNC(=O)[O][Pt]([Cl])([Cl])[O]C(=O)CCC(=O)O.N.N` the IC50 was 1.34 µM.
The IC50 of `CC(C)c1cccc(C(C)C)c1N=[C](NCc1ccc(N)cc1)[AuH][Cl]` is reported as > 100 µM.
`C[C@]12CC[C@@H]3c4ccc(O)cc4CC[C@H]3[C@@H]1CC[C@@]2(O)c1cn(CC(=O)c2ccc(Br)cc2)nn1` gave an IC50 of > 46.6 µM (resazurin; 72 h).
`Cc1cc(C)c([N+]#[C][Pd-]([Cl])([Cl])=[C](Nc2cccc(CN[C](NC(C)(C)C)=[Au][Cl])c2)Nc2c(C)cc(C)cc2C)c(C)c1` gave an IC50 of > 100 µM.
With `CC1=C(Cn2c3ccc(Br)c(=O)c-3nc3ccccc32)CCC(C)(C)C1` the IC50 was 0.6 µM (CCK-8; 72 h).
The IC50 of `CN(C)CCO/N=C1/C=C2CCC3C(CC[C@]4(C)/C(=C/c5ccccn5)CCC34)[C@@]2(C)CC1` (stereo partly drawn) is reported as > 100 µM (MTT; 72 h).
The IC50 of `Cc1cc(C)c([N+]#[C][Pt-]([Cl])([Cl])=[C](Nc2cccc(CN[C](NC(C)(C)C)=[Au][Cl])c2)Nc2c(C)cc(C)cc2C)c(C)c1` is reported as > 100 µM.
`c1ccc(-n2nc(-c3ccccn3)n[n+]2-c2ccccc2)cc1` gave an IC50 of > 900 µM (resazurin; 72 h).
For `Cc1cc(C)c(N=[C](NCc2ccc(N)cc2)[AuH][Cl])c(C)c1`, the IC50 was > 100 µM.
With `CC(C)=CCn1c2cccc(=O)c-2nc2ccccc21` the IC50 was 0.87 µM (CCK-8; 72 h).
For `O=C(c1ccc[nH]1)c1ccccc1O`, the IC50 was > 64 µg/mL (resazurin; 24 h).
With `C[C@]12CC[C@@H]3c4ccc(O)cc4CC[C@H]3[C@@H]1CC[C@@]2(O)c1cn(CC(=O)c2cccc(F)c2)nn1` the IC50 was > 52.5 µM (resazurin; 72 h).
The IC50 of `CC1=C(Cn2c3cccc(=O)c-3nc3ccccc32)CCC(C)(C)C1` is reported as 0.68 µM (CCK-8; 72 h).
`Cc1cc(C)c(N[C](NCc2cccc(N[C](Nc3c(C(C)C)cccc3C(C)C)=[Pt-]([Cl])([Cl])[C]#[N+]c3c(C(C)C)cccc3C(C)C)c2)=[Au][Cl])c(C)c1` has an IC50 of > 100 µM.
`Oc1ccccc1-n1nc(-c2ccccc2)n[n+]1-c1ccccc1` has an IC50 of 330 µM (resazurin; 72 h).
`Cc1cc(C)c(N=[C](NCc2cccc(N)c2)[AuH][Cl])c(C)c1` gave an IC50 of > 100 µM.
`C[C@]12CC[C@@H]3c4ccc(O)cc4CC[C@H]3[C@@H]1CC[C@@]2(O)c1cn(CC(=O)c2ccc(Cl)cc2)nn1` has an IC50 of > 50.8 µM (resazurin; 72 h).
The IC50 of `c1ccc(-c2nn(-c3ccccn3)[n+](-c3ccccc3)n2)cc1` is reported as > 160 µM and 210 µM (resazurin; 72 h).
The IC50 of `Cc1cc(C)c([N+]#[C][Pt-2]([Cl])([Cl])[C]#[N+]c2c(C)cc(C)cc2C)c(C)c1` is reported as > 100 µM.
`CN(C)C(=S)N(C)N=Cc1ccccc1SSc1ccccc1C=NN(C)C(=S)N(C)C` has an IC50 of 17 µM (MTT; 72 h).
With `Oc1ccccc1-c1nn(-c2ccccc2)[n+](-c2ccccc2)n1` the IC50 was > 900 µM (resazurin; 72 h).
The IC50 of `C=C(C)[C@H]1CC[C@@]2(C)CC[C@]3(C)C[C@H]4[C@@H](C)CC[C@H]4/C(C)=C\C[C@H]3[C@H]12` is reported as > 500 µM (MTT; 72 h).
The IC50 of `C[C@]12CC/C(=N/O)C=C1CCC1C2CC[C@]2(C)/C(=C/c3ccccn3)CCC12` (stereo partly drawn) is reported as > 100 µM (MTT; 72 h).
For `CC(C)(C)c1ccc2[c](c1)[Au-]1([Cl])[c]3cc(C(C)(C)C)ccc3-c3cncc-2[n+]31`, the IC50 was 4.9 µM (MTS).
`CN1CCCC1CCO/N=C1/C=C2CCC3C(CC[C@]4(C)/C(=C/c5ccccn5)CCC34)[C@@]2(C)CC1` (stereo partly drawn) has an IC50 of > 100 µM (MTT; 72 h).
`C/C1=C/C[C@H]2[C@@H]3[C@@H]([C@]4(C)CO4)CC[C@@]3(C)CC[C@]2(C)C[C@H]2[C@@H](C)CC[C@@H]12` has an IC50 of 33 µM (MTT; 72 h).

Excerpt of the above:
`Oc1ccccc1-n1nc(-c2ccccc2)n[n+]1-c1ccccc1` has an IC50 of 330 µM (resazurin; 72 h).
`Cc1cc(C)c(N=[C](NCc2cccc(N)c2)[AuH][Cl])c(C)c1` gave an IC50 of > 100 µM.
`C[C@]12CC[C@@H]3c4ccc(O)cc4CC[C@H]3[C@@H]1CC[C@@]2(O)c1cn(CC(=O)c2ccc(Cl)cc2)nn1` has an IC50 of > 50.8 µM (resazurin; 72 h).
The IC50 of `c1ccc(-c2nn(-c3ccccn3)[n+](-c3ccccc3)n2)cc1` is reported as > 160 µM and 210 µM (resazurin; 72 h).
